Assay results collected from several papers.
Lines come from different studies, so protocols differ. Several values in a cell are separate wells, animals, samples, runs or records. Numbers after ± are the reported error. No end group written: not given here.
B1: bicyclic; chain AATCHCRRSCYSTEYSYGTCTVMGINHRFCCL (also: bicyclic or more (positions not given here))
UniProt Q64663, sequence (whole entry, unmodified, looked up): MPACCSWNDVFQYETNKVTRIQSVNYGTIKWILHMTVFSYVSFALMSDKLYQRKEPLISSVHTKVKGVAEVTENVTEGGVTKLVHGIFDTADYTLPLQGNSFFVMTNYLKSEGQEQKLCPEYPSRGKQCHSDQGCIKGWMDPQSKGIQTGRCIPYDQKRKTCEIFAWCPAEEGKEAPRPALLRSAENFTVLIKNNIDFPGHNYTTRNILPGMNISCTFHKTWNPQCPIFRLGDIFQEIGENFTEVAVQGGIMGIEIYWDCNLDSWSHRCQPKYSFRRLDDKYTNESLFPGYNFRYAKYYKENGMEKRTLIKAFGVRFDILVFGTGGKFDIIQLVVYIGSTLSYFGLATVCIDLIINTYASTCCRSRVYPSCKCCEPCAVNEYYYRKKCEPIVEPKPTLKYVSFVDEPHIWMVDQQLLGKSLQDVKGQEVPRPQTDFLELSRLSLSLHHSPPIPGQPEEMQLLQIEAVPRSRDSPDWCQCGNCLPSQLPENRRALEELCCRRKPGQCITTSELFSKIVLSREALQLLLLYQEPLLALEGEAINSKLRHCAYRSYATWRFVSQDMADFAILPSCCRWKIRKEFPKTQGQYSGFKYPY
UniProt Q9UNQ0, sequence (whole entry, looked up): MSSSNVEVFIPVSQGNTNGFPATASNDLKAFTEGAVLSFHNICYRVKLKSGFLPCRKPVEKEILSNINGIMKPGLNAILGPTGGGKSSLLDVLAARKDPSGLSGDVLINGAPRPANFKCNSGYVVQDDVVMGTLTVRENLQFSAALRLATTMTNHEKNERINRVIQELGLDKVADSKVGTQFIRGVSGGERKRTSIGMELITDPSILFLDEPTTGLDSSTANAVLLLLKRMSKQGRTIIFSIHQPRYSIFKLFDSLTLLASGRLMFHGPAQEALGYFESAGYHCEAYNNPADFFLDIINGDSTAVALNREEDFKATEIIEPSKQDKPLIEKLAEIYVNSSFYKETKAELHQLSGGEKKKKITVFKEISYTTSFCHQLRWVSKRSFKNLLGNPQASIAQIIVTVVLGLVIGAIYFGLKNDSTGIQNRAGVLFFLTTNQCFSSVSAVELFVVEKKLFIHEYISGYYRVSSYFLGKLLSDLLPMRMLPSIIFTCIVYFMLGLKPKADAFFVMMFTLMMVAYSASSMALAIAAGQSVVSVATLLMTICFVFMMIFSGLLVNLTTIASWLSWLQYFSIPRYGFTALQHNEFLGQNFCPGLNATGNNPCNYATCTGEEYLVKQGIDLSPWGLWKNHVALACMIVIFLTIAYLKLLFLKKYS

Molecule	tested on	assay	test system	setting	how to read	endpoint	value
FNA / CGLSGLGVA-NH2 ([18F]FNA-labelled, C-amide)		ex vivo gamma counting	peptide, healthy mouse, pancreas	60 min post injection		tissue uptake	0.22 %ID/g
caspofungin			adult ICU patients, mITT, serum	dose not given, day 30		potassium	4.1 mmol/L
Peginesatide	UT7/EPO	tyrosine phosphorylation, LC-MS/MS phosphoproteomics, GluC, item: MLLT4 tyrosine 1480		10 nM, 15 min, together with: 10 U/mL EPO	relative to: vehicle	phosphorylation level	9.6 fold
LVHYTHCGSLGV	Epstein-Barr virus		peptide, EBV-infected humanized B-NDG mice	20 mg/kg, day 42		body weight	23.4 g and 21.3 g and 22.2 g
BzATP	P2X purinoceptor 7 (P2rx7, Rattus norvegicus, UniProt Q64663, I214A/Q143A)	ion current, agonist, two-electrode voltage clamp	Xenopus oocytes	100 µM		normalized current	0.79 and 0.74 and 0.8
colistin	Pseudomonas aeruginosa	broth microdilution	clinical isolate RKI 485/15-1			MIC	1 µg/mL
Rilpivirine docusate			Capryol 90	mean of three		kinetic solubility	~300 mg/mL
11-deoxycorticosterone	CYP11B2 (human)	substrate binding, stopped-flow global kinetic fitting	purified enzyme	3-state induced fit model, together with: no adrenodoxin		rate constant k-2	1.21 ± 0.0595 s⁻¹
B1		sedimentation velocity AUC	10 mM sodium phosphate	40 µM, pH 7.4, 20 °C		sedimentation coefficient S20,w	0.798 S
Lucifer yellow	ABCG2 (Homo sapiens, UniProt Q9UNQ0)	substrate		together with: ATP		uptake rate	225 ± 13.8 pmol/min/mg
regorafenib N-β-glucuronide			wild-type mouse, plasma	oral, 10 mg/kg of regorafenib, single dose		Cmax	35.5 ± 5.97 ng/mL
Teicoplanin			human serum QC samples	2-6 °C		stability time	≤ 7 days

Excerpt of the above:
Molecule	tested on	assay	test system	setting	how to read	endpoint	value
Teicoplanin			human serum QC samples	2-6 °C		stability time	≤ 7 days
FNA / CGLSGLGVA-NH2 ([18F]FNA-labelled, C-amide)		ex vivo gamma counting	peptide, healthy mouse, pancreas	60 min post injection		tissue uptake	0.22 %ID/g
